Experimental data gathered from unrelated publications.
Parts stem from different laboratories: compare values within a part only. Changes are numbered by the printed parent chain.

Sample 1
Target: PABPC1L2, full length, GST fusion (mouse, UniProt A0ABA7IW68)
Technique: RNAcompete
Molecule type: RNA
Matrix: in vitro
Tested at: 20 nM
Notes: 7-mer, probes averaged, single round
Reference: mean of 7-mers
Direction: higher = stronger binding
Construct (chain): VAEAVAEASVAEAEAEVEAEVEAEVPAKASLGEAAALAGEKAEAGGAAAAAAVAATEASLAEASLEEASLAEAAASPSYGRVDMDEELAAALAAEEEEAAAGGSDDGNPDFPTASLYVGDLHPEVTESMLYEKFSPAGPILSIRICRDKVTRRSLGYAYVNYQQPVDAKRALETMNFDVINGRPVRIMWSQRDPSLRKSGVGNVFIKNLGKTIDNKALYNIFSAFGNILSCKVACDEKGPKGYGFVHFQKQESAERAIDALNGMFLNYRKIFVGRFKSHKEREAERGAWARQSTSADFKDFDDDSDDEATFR
Strand | 7-mer Z-score
CUUAACG | -0.267
AUAUGCC | -0.0428
UUUCGGU | -0.32
CAUAAGA | 0.0315
GCAGAAA | 1.48
GCAUACG | -0.0645
GCUAGGC | -0.0971
CGGCUCC | -0.302
CACGUCU | -0.345
CUUCCCG | -0.454
GCUAGAC | 0.00979
CAGAUUA | -0.00289
GACUGUG | -0.191
UACGAGA | 0.166
GAGGGCU | 0.189
GCUUAAC | -0.208

Sample 2
Target: UBE2Z UBC core domain (UniProt Q9H832)
Technique: yeast two-hybrid
Matrix: yeast
Notes: mostly zero background
Reference: not given
Direction: higher = stronger interaction
B1: RNF17 RING domain (UniProt Q9BXT8); chain SQPWGAAEIQCTRCGRRVSRSSGHHCELQCGHAFCELCLLMTEECTTIICPDCEVATAVNTRQR
B2: UBE4B RING domain (UniProt O95155); chain KNARAEIDYSDAPDEFRDPLMDTLMTDPVRLPSGTIMDRSIILRHLLNSPTDPFNRQTLTESMLEPVPELKEQIQAWMREKQNSDH
B3: MARCHF2 RING domain (UniProt Q9P0N8); chain RLLSTVIRALDTPSDGPFCRICHEGANGECLLSPCGCTGTLGAVHKSCLEKWLSSSNTSYCELCHTEFAVEKRPRPLTEWL
B4: RNF7 RING domain (UniProt Q9UBF6); chain AICRVQVMDACLRCQAENKQEDCVVVWGECNHSFHNCCMSLWVKQNNRCPLCQQDWVVQRIGK
B5: RFPL3 RING domain (UniProt O75679); chain MAALFQEASSCPVCSDYLEKPMSLECGCTVCLKCINSLQKEPHGEDLLCCCCSMVSQRNKIRP
B6: RNF130 RING domain (UniProt Q86XS8); chain DKETDPDFDHCAVCIESYKQNDVVRILPCKHVFHKSCVDPWLSEHCTCPMCKLNILKALGIV
B7: RMND5B RING domain (UniProt Q96G75); chain MKCWYHSVFACPILRQQTSDSNPPIKLICGHVISRDALNKLINGGKLKCPYCPMEQNPADGK
B8: SHPRH RING domain (UniProt Q149N8); chain KTSGGVNPEPCPICARQLGKQWAVLTCGHCFCNECISIIIEQYSVGSHRSSIKCAICRQTTSHKEISY
B9: RNF11 RING domain (UniProt Q9Y3C5); chain RDGSEKKIRECVICMMDFVYGDPIRFLPCMHIYHLDCIDDWLMRSFTCPSCMEPVDAALLSS
B10: TRIM34 RING domain (UniProt Q9BYJ4); chain ILLNVQEEVTCPICLELLTEPLSLDCGHSLCRACITVSNKEAVTSMGGKSSCPVCGISYSFEHLQA
Residues (chain): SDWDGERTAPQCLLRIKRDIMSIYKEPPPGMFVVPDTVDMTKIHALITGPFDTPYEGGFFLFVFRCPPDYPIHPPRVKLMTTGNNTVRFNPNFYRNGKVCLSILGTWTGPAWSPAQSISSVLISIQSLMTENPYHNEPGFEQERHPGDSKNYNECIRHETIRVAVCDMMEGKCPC
Sequence | lacZ reporter activity
B1 (RNF17 RING domain) | 0
B2 (UBE4B RING domain) | 0
B3 (MARCHF2 RING domain) | 0
VPADASPDSKCPICLDRFDNVSYLDRCLHKFCFRCVQEWSKNKAECPLCKQPFDSIFHSV (TOPORS RING domain (UniProt Q9NS56)) | 2150
B4 (RNF7 RING domain) | 0
B5 (RFPL3 RING domain) | 0
KITELNPHLMCALCGGYFIDATTIVECLHSFCKTCIVRYLETNKYCPMCDVQVHKTRPLL (PCGF2 RING domain (UniProt P35227)) | 0
SNNDLASLFECPVCFDYVLPPILQCQSGHLVCSNCRPKLTCCPTCRGPLGSIRNLA (SIAH1 RING domain (UniProt Q8IUQ4)) | 7210
B6 (RNF130 RING domain) | 14600
B7 (RMND5B RING domain) | 0
B8 (SHPRH RING domain) | 0
B9 (RNF11 RING domain) | 0
EIKDYKARLTCPCCNMRKKDAVLTKCFHVFCFECVKTRYDTRQRKCPKCNAAFGANDFHR (RNF20 RING domain (UniProt Q5VTR2)) | 0
B10 (TRIM34 RING domain) | 0

Sample 3
Target: CCND1, cyclin fold, Cln2 fusion (human)
Technique: yeast growth competition, sequencing
Matrix: yeast
Notes: strong parent motif
Reference: not given
Direction: higher = stronger binding
Starting sequence: RBL1 docking peptide (human); GSAKRRLFGEDPP; partner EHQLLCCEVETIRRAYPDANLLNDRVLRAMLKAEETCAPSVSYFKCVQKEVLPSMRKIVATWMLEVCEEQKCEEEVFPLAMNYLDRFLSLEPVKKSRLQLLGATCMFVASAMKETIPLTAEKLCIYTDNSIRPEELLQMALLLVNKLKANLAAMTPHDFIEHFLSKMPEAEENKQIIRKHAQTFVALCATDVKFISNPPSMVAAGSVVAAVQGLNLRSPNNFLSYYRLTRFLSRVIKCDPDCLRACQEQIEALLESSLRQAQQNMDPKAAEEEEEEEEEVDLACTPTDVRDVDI
Change | normalised enrichment score
A3P | 0.818
A3T | 1.08
E10K | 0.847
G1C | 1.61
G9F | 4.36
G9V | 3.58
R6N | 1.09
S2R | 1.32
R6L | 1.7
D11V | 0.399
G9E | 2.3
G1I | 2.23
P12H | 1.27
R6M | 1.46
L7R | -0.0668
P13L | 2.27
P12N | 1.85
F8N | 0.171
G9Y | 2.26
G1W | 1.86

Sample 4
Target: RNA binding protein fox-1 homolog 2, RRM domain, GST-SBP tag (RBFOX2, Homo sapiens, UniProt O43251-10, residues 100-194)
Technique: RNA Bind-n-Seq
Molecule type: RNA
Matrix: in vitro
Tested at: 365 nM
Notes: natural RNA segment, single round, ends assumed
Reference: no-protein control
Direction: higher = stronger binding
Shared flanks, not repeated: GGGAGUUCUACAGUCCGACGAUC … UGGAAUUCUCGGGUGCCAA
Target sequence (chain): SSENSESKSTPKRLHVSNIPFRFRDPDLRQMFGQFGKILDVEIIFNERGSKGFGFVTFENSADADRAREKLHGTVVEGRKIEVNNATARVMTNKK
Strand | RBNS enrichment (R)
AAAGUUUUAUUUUUCUAAAAAAAGAAAAAAGAAGAAAAAAUUUAAAGGGUGUACUUAUAUCCACACUGCACACUGCCUGGCCCAAAACGUCUUAUUGUGGUAGGAUCAGC | 2.35
GUUUAACAGUUCCUUUACAUGUGUAGUAUUUGAGGAAAAAAAUCAAUAAACAGUUGAUCUCGUGCAUUGGAAGUCCCUUCGCCAUCAUCUGUCUUCAUGCCCACUUCACU | 0.777
GUGUGGUAGGACUUGGAGGAGAAAUCCCCUGGACUUUCACUAACCCUCUGACAUACUCCCCACACCCAGUUGAUGGCUUUCCGUAAUAAAAAGAUUGGGAUUUCCUUUUG | 0.563
ACUCUCUUAUUUGUGCAUUCGGUUUGGUUUCUGUAGUUUUAAUUUUUAAUAAAGUUGAAUAAAAUAUAAACGCUGGUAUCUGUUGGCUUCCAUUCCGCUUUAGUAAGUAA | 1.36
UAACAAACCAAUAAGAUAUUUGUCUCCUAUAUAAACAUUCUGUGUAUUUAGCACUUGAAAAUCAACAAAUCCAGAAUUUAAAAAAAUGCCACAGACUUUUCAAAGCCCAA | 0.566
GUGUUUUUUGUCCAUUAAAGUGUAUCUUUGUCCAUCCUAUAAGAUUAAAGGAAAGAAAAAGCAUCUCAAAUGAGUGUAAGUUGUUCUUGAGAAAAAAAUGUAUCAGACUU | 0.667
UUGAGGGGCAGGUUCCCCCAGGUGGUCCCCAGAUUUGCACUAAUGUUCCUCCCCUGGCCAGUUAGGGAUGGGAUGUUCUGUGUCUUGUGUGUCCCUCUCCCUAGUCUAAA | 1.3
UGGGUAUUGCAGGAUGCUGAUUGAACAGCACCUGUGACCUUUCCUGCUCCAUGCCACUAGCAACCUCCUGCCAUGUGUGGCAGUCACAAAGGUCAUCAGAAUGGAGUGAG | 0.251
UGUUAACCUGGAGGAAGUCUCUGGUAUGGAGUUCUGAGAGCUUAAGAGCUAAACAUGAGUUUAGACACACAAGAUUCUAAAAUGCAAAUGUUUAUUUUGAAGCAGGCAUU | 0.336
UGCUCCCUCUUGUCUUGAAACAGUUUGAGUAAGAAAGUCUUGCUGUAAAUGCUGCCCUCUGCCGCCUUUGUUUUGAGAUGCAGUUUAAACUCCCUCUGGCUGCUGCUGCU | 1.06
AGCUGGGCUGGCCCAGGCCAGUGCCACCUUUGUCCUCUCUUAACUCCAAGAAGUGCAAGUGAACUUGAUUGUUGGCCCUCCCUUGACCUUCCAUAAUAGUUCCCACCCCU | 0.324
ACCAGUUAACAGGUUAUGAUGAGCUGCUCCACGUCUACAGUCCAGUGCGUGGGAAGACAUGCCCCAGGCCCAGCCCUGACCACAUGUGUUGCUAAUUCCUGUCUGGUUCC | 0.343

Sample 5
Target: ABI1, truncated, D143A, DHFR fusion (Arabidopsis thaliana)
Technique: DHFR PCA, deep sequencing
Matrix: yeast
Notes: methotrexate growth selection, single substitutions
Together with: (+)-ABA 0.39 µM
Reference: wild-type fitted maximum
Direction: higher = stronger binding
Starting sequence: PYL1, truncated, DHFR fusion (Arabidopsis thaliana); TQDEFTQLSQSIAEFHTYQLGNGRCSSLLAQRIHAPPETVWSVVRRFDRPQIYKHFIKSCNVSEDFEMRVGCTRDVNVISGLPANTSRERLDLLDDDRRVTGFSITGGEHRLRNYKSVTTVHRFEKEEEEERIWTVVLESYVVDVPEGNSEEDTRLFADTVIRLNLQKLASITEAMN; partner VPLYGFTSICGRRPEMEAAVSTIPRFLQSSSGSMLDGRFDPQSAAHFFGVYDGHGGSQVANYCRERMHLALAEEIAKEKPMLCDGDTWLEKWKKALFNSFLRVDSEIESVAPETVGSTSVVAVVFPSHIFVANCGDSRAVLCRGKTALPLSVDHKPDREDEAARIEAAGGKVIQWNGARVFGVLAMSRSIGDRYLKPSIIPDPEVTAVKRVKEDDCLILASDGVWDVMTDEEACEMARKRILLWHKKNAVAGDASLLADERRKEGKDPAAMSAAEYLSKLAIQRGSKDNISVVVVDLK
Change | relative binding score
T17Q | 10.5%
E89N | -9.26%
I12G | -0.36%
Q19I | 24.1%
R74N | -4.91%
T17G | 1.87%
F66A | 17.8%
Q167P | 8.22%
L112A | -6.36%
N149V | 54.7%
R111D | -0.549%
N114H | 6.81%
L138T | -19.8%
Y18E | -2.42%
V78M | 65.6%
D75T | 71%
K58L | 27.9%
